Measured values collected from several papers.
Compare with care: the assays were run in different laboratories. ± marks the error that the study gave.
KLRK1 with MICA: NKG2-D type II integral membrane protein, with MICA (KLRK1, Homo sapiens, UniProt P26718)
UniProt P26718, sequence (whole entry, looked up): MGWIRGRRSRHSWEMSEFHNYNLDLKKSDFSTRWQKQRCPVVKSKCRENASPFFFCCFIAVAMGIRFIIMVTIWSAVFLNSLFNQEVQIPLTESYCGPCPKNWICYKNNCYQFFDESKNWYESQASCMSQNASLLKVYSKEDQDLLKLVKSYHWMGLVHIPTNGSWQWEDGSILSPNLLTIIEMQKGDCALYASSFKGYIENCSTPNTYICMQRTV
CES1: Liver carboxylesterase 1 (CES1, Homo sapiens, UniProt P23141)
UniProt P23141, sequence (whole entry, looked up): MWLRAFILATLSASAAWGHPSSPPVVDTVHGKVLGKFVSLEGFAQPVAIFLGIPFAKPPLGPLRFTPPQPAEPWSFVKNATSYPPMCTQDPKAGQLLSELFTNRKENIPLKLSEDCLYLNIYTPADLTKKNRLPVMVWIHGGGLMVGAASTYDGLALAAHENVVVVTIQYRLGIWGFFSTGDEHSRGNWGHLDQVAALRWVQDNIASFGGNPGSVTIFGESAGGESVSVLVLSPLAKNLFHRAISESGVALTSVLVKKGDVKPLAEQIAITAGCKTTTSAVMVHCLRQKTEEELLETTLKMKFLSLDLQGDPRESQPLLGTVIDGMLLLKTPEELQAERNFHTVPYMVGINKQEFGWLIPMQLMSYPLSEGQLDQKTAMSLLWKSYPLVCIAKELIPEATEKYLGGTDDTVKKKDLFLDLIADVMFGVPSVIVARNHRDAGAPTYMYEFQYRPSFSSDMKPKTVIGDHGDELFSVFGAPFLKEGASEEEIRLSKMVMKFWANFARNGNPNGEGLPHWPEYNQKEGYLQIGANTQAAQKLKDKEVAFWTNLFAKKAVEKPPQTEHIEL
blaNDM-1: Metallo-beta-lactamase type 2 (blaNDM-1, Klebsiella pneumoniae, UniProt C7C422)
UniProt D0VWV4, sequence (whole entry, looked up): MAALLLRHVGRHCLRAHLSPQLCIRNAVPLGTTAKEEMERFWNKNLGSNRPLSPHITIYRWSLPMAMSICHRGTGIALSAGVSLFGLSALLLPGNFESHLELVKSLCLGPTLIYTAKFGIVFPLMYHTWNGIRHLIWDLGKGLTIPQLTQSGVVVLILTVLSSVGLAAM
UniProt Q15858, sequence (whole entry, looked up): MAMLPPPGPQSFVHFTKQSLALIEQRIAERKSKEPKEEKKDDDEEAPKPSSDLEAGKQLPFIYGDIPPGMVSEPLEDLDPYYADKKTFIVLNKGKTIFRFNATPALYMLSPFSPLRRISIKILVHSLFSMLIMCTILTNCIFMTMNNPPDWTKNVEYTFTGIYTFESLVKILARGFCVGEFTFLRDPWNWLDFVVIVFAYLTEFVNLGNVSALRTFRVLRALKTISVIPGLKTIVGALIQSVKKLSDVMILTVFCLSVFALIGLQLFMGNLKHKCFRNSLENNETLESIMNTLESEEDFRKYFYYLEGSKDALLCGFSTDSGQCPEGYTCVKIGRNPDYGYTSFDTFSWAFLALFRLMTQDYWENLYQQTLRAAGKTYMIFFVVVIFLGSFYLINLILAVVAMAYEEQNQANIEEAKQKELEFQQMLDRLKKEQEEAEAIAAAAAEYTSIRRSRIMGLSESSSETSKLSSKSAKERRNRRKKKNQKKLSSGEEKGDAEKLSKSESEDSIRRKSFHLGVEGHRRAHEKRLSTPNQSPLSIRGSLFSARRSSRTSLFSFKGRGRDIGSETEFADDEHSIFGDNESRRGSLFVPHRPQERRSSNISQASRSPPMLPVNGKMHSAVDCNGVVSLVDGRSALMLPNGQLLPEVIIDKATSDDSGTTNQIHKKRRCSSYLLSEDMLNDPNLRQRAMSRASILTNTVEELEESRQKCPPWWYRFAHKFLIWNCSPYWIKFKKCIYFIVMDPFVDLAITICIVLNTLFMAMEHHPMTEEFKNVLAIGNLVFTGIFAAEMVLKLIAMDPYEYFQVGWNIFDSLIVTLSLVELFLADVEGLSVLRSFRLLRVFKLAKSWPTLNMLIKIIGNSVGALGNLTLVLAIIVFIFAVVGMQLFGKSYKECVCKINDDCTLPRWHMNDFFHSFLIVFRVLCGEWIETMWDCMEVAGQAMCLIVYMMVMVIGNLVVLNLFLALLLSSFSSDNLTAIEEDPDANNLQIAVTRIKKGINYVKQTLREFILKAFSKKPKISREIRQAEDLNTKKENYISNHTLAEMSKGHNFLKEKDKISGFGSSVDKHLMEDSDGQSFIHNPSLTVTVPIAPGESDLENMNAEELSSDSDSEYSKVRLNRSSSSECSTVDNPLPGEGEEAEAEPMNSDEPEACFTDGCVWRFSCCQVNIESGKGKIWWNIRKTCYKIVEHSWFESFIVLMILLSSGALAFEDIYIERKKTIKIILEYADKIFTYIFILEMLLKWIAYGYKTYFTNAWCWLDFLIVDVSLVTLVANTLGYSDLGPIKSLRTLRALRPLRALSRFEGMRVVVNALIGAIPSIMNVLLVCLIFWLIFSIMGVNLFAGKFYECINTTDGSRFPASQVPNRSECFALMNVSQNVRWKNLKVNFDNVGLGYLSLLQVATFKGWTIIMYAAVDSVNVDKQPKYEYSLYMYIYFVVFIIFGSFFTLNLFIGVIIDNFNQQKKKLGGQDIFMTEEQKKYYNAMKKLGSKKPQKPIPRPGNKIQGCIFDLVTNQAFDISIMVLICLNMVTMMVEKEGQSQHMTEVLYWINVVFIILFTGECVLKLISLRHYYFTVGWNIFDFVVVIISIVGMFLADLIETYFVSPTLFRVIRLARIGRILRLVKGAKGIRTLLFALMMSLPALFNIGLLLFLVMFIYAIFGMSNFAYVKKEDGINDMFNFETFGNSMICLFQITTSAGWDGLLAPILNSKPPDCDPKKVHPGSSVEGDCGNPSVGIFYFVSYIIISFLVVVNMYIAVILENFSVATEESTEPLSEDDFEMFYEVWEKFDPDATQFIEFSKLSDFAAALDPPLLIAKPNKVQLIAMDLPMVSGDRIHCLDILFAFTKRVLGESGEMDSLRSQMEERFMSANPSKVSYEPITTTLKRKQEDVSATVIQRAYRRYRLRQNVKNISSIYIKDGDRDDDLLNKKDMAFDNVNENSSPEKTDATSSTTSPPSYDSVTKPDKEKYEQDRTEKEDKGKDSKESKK
UniProt P25325, sequence (whole entry, looked up): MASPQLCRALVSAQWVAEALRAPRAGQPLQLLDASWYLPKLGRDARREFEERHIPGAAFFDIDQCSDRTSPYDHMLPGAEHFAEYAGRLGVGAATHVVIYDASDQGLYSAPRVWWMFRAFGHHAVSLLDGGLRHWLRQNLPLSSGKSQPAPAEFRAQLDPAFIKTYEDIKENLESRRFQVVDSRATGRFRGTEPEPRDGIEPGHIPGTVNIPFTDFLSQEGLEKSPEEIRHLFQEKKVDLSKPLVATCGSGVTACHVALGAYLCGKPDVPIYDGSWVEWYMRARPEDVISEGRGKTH
UniProt P68400, sequence (whole entry, looked up): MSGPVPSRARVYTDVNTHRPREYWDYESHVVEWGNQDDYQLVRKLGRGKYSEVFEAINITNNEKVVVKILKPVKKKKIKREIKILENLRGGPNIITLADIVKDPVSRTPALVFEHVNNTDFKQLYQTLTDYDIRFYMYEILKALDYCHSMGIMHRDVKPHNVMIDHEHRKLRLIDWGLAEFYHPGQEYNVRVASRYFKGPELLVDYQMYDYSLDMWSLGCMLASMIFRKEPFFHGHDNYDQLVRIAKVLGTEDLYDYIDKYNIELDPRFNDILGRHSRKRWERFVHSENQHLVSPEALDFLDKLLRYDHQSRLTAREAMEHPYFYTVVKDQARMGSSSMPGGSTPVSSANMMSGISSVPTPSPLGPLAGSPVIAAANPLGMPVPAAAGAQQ
UniProt P28074, sequence (whole entry, looked up): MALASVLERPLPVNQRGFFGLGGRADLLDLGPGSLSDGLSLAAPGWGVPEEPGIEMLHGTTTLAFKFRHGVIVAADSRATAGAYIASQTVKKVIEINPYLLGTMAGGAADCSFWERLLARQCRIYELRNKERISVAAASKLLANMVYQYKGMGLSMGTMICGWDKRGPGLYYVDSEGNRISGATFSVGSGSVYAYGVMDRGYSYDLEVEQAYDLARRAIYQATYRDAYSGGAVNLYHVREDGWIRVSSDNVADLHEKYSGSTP
UniProt Q920B6, sequence (whole entry, unmodified, looked up): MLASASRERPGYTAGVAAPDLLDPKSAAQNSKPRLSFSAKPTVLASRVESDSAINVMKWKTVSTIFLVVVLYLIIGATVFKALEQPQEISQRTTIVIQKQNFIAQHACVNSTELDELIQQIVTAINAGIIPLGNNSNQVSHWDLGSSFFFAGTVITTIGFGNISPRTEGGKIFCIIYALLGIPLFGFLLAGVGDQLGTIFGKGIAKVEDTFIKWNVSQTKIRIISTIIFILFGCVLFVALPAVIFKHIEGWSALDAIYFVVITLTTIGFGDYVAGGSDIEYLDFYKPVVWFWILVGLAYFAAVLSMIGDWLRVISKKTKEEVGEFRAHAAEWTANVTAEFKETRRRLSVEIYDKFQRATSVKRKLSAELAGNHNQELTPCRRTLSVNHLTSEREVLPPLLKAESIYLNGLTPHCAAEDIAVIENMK
UniProt Q007T0, sequence (whole entry, looked up): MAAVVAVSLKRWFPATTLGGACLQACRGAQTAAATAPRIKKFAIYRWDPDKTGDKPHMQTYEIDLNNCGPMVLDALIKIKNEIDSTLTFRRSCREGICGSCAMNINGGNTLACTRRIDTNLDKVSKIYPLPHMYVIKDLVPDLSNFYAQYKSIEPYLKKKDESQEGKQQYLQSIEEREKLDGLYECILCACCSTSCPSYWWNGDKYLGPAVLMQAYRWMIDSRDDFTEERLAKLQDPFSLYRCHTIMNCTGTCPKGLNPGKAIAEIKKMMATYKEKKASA
UniProt P63104, sequence (whole entry, looked up): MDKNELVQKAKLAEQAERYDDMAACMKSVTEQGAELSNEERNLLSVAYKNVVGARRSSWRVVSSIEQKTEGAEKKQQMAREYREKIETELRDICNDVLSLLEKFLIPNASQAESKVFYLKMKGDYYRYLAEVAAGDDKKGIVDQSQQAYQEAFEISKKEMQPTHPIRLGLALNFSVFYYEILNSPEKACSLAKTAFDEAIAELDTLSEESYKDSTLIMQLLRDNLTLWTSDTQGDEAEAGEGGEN

CN1C(=O)[C@H](Cc2ccccc2)N(C)C(=O)[C@@H]2[C@H]1CCN2Cc1cc(Cl)cc(Cl)c1 — IC50 (KLRK1 with MICA; ligand binding, cellular TR-FRET): 12.9 µM
COc1ccc(CN(CCC(c2ccccc2)c2ccc(OC(C)C)cc2)C(=O)CCl)cc1OC (stereo not shown) — IC50 (Glutathione S-transferase omega-1 (GSTO1, Homo sapiens, UniProt P78417); enzyme activity, inhibitor): < 0.4 µM
O=C(O)c1ccccc1-c1c2ccc(=O)c([As]3SCCS3)c-2oc2c([As]3SCCS3)c(O)ccc12 — IC50 (Tyrosine-protein phosphatase non-receptor type 11 (Ptpn11, Mus musculus, UniProt P35235); phosphatase activity; E. coli lysate; 120 min, 37 °C, wild-type Shp2 lysate, with: pNPP 10 mM): 6 µM
CC[C@@H]1C(=O)N(C)c2cnc(Nc3ccc(C(=O)NCCCC[C@H](NC(C)=O)C(=O)N4CCC[C@H]4C(=O)N[C@@H](CC(C)C)C(=O)N[C@@H](Cc4cncn4CCCCCCCCc4ccccc4)C(=O)N[C@@H](CO)C(=O)N[C@H](C(N)=O)[C@@H](C)OP(=O)(O)O)cc3OC)nc2N1C1CCCC1 — IC50 (Serine/threonine-protein kinase PLK1 (PLK1, Homo sapiens, UniProt P53350); enzyme activity, inhibitor): 0.0036 ± 0.00035 µM
CCCCC[N+](CCCCC)(CCCCC)CCCCC — IC50 (Potassium channel subfamily K member 2 (Kcnk2, Rattus norvegicus, UniProt Q920B6, T266C); ion current, inhibitor, inside-out patch clamp): 102 ± 9 µM
CCNCCN(C)c1ccc(Nc2cc(NC3CC3)n3ncc(C#N)c3n2)cc1NC(=O)CC — IC50 (Casein kinase II subunit alpha (CSNK2A1, Homo sapiens, UniProt P68400); target engagement in cells, BRET): 0.02 µM
O=c1c(Cl)c(Cl)cnn1Cc1ccccc1 — IC50 (Disulfide bond formation protein B (Escherichia coli, UniProt P0A6M2); DsbA oxidation; aerobic growth): 8.5 ± 0.6 µM
COc1cc2c(cc1O)oc(=O)c1c3cc(O)c(O)cc3oc21 — IC50 (Genome polyprotein, NS5B polymerase (Hepatitis C virus genotype 1b, UniProt P26663); RNA polymerase activity, inhibitor; NS5B-RNA preincubated before inhibitor): 70 µM
CC(=O)N[C@@H](CCCNC(=N)N)C(=O)N[C@H](C(=O)N1CCC[C@H]1C(=O)N[C@@H](COP(=O)(O)O)C(=O)N[C@@H](CC(C)C)C(=O)N1CCC[C@H]1C(=O)N[C@H](C(=O)N1CCC[C@H]1C(c1ccccc1)c1ccccc1)[C@@H](C)O)[C@@H](C)O — IC50 (14-3-3 protein zeta/delta (YWHAZ, Homo sapiens, UniProt P63104); peptide binding, inhibitor, competitive fluorescence polarization; 10 µM protein, with: 100 nM FAM-labelled diphosphorylated Tau peptide): 8.1 µM
COC(=O)C=CCCC(NC(=O)c1ccncc1C(=O)O)C(=O)NC(C(=O)N1CC(=O)CC1C(=O)NC(C(=O)NC(C(N)=O)C1CCCCC1)C1CCCCC1)C(C)(C)C (stereo not shown) — IC50 (coagulation factor XIII A chain (Oryctolagus cuniculus, UniProt A0A5F9CS22); transamidation activity, inhibitor; rabbit enzyme, with: dansylcadaverine into N,N-dimethylcasein): 0.007 ± 0.0017 µM
O=C(Nc1ccccc1Nc1ccccc1)c1cccnc1Cl — IC50 (Succinate dehydrogenase complex (Sus scrofa, UniProt A5GZW8+D0VWV4+Q007T0+Q0QF01); enzyme activity, inhibitor, double-antibody sandwich ELISA): 3.18 µM
CC[C@H](C)[C@@H]1NC(=O)CNC(=O)[C@H]([C@@H](C)CC)NC(=O)[C@H](Cc2ccc(O)cc2)NC(=O)[C@H](CCCNC(=N)N)NC(=O)CNC(=O)[C@H](CCCNC(=N)N)NC(=O)[C@H]([C@@H](C)CC)NC(=O)[C@H](C(C)C)NC(=O)[C@H]([C@@H](C)CC)NC(=O)[C@H](CO)NC(=O)[C@H](C(C)C)NC(=O)[C@H](CO)NC(=O)[C@@H](Cc2ccc(O)cc2)NC(=O)CSC[C@@H](C(=O)NCC(N)=O)NC(=O)[C@H](CCCNC(=N)N)NC(=O)[C@H]([C@@H](C)CC)NC1=O — IC50 (Nicotinamide N-methyltransferase (NNMT, Homo sapiens, UniProt P40261); enzyme activity, inhibitor, mass spectrometry): 0.229 µM
CC(C)C[C@H](NC(=O)[C@@H](CCCCN)NC(=O)[C@H](Cc1c[nH]cn1)NC(=O)[C@H](CO)NC(=O)[C@H](Cc1c[nH]c2ccccc12)NC(=O)[C@H](Cc1c[nH]cn1)NC(=O)[C@@H]1CCC(=O)N1)C(=O)N[C@@H](CCCNC(=N)N)C(=O)N1CCC[C@H]1C(=O)NCC(N)=O — IC50 (Gonadotropin-releasing hormone receptor (Rattus norvegicus, UniProt P30969); ligand displacement in cells, radioligand): 0.003 µM
CCCn1nnc(-c2cccc(NC(=O)[C@H](C)CS)c2)n1 — IC50 (Metallo-beta-lactamase type 2 (Serratia marcescens, UniProt P52699); inhibitor; 10 min preincubation, with: FC5 substrate): 1.23 µM
CCOc1ccc2nc3cc(N)ccc3c(N)c2c1 — IC50 (CES1; enzyme activity, inhibitor, absorbance): 99.3 µM
CCOC(=O)c1ccc(-c2ccc(OC(=O)N(C)Cc3cccc(-c4ccncc4)c3)cc2)cc1 — IC50 (CES1; enzyme activity in cells, inhibitor): ~0.05 µM
CNC(=O)CNc1cnc2ccc(-c3ccc(OC)c(OC)c3)cc2n1 — IC50 (Phosphatidylinositol 4-kinase (Cryptosporidium parvum, UniProt Q5CVD3); enzyme activity; with: ATP 3 µM): 7.3 ± 0.841 µM
C[C@H](CS)C(=O)Nc1ccccc1-c1nnn(C)n1 — IC50 (blaNDM-1; enzyme activity, inhibitor, fluorescence; with preincubation): > 100 µM
CN(C)C(=O)[C@H](NC(=O)c1ccccc1-c1ccc(C(F)(F)F)cc1)c1cccc(C(F)(F)F)c1 — IC50 (KLRK1 with MICA): > 20 µM
C[C@H](CS)C(=O)Nc1cccc(-n2nccn2)c1 — IC50 (blaNDM-1; enzyme activity, inhibitor, fluorescence; with preincubation): 2.1 µM
CC(C)[C@H](NC(=O)[C@H](Cc1c[nH]c2ccccc12)NC(=O)[C@@H](N)Cc1ccccc1)C(=O)N1CCC[C@H]1C(=O)O — IC50 (Dipeptidyl peptidase 4 (DPP4, Homo sapiens, UniProt P27487); enzyme activity, inhibitor, absorbance): 342 µM
O=C1C=CC(=C(c2ccc(O)cc2)c2c(C#Cc3ccc(O)cc3)cccc2-c2ccc(O)cc2)C=C1 — IC50 (3',5'-cyclic-AMP phosphodiesterase 4D (PDE4D, Homo sapiens, UniProt Q08499); enzyme activity, inhibitor, fluorescence): 1.68 µM
CC(C)[C@H](NC(=O)N[C@H](C(=O)N[C@H]1/C=C/CCNC(=O)/C=C/[C@H](C(C)C)NC1=O)C(C)C)C(=O)O — IC50 (Proteasome Macropain subunit MB1 (PSMB5, Homo sapiens, UniProt P28074); chymotrypsin-like activity, inhibitor; human constitutive proteasome; with: Suc-LLVY-AMC): 0.18 µM
CCOC(=O)C1CN1S(=O)(=O)c1ccc(C)cc1 (stereo not shown) — IC50 (Protein disulfide-isomerase A3 (PDIA3, Homo sapiens, UniProt P30101); enzyme activity, inhibitor, absorbance; pH 7.6): 23 µM
CC[C@H](C)[C@H](NC(=O)[C@H](C)NC(=O)[C@H](CS)NC(=O)[C@@H]1CCCN1)C(=O)N[C@@H](Cc1c[nH]c2ccccc12)C(=O)N[C@@H](Cc1ccccc1)C(=O)O — IC50 (Vascular endothelial growth factor receptor 3 (Mus musculus, UniProt P35917); ligand displacement): < 40.8 µM
CC(C)C[C@H](NC(=O)[C@H](C)NC(=O)[C@H](CC(N)=O)NC(=O)[C@H](CCC(=O)O)NC(=O)[C@@H](N)CCCCN)C(=O)N[C@@H](CC(C)C)C(=O)N[C@@H](CCCNC(=N)N)C(=O)N[C@@H](Cc1ccc(O)cc1)C(=O)N[C@@H](CC(C)C)C(=O)N[C@@H](CC(C)C)C(=O)N[C@@H](CC(=O)O)C(=O)N[C@@H](CCCCN)C(=O)N[C@@H](CC(=O)O)C(=O)NCC(=O)NCC(=O)NCC(=O)N[C@@H](CCCNC(=N)N)C(=O)N[C@@H](CCCNC(=N)N)C(=O)N[C@@H](CCCNC(=N)N)C(N)=O — IC50 (Vitamin D3 receptor (VDR, Homo sapiens, UniProt P11473); reporter gene, antagonist, dual-luciferase; MCF7; 16 h, with: calcitriol 30 nM): > 30 µM
CCN(Cc1ccccc1)C(=O)CCc1nc(CN2CCN(C(=O)Cc3ccc(OC)c(OC)c3)CC2)no1 — IC50 (Sodium channel protein type 9 subunit alpha (SCN9A, Homo sapiens, UniProt Q15858); ion current, inhibitor, patch clamp): 0.52 µM
NC[C@@H]1O[C@H](O[C@H]2[C@@H](O)[C@H](O[C@@H]3[C@@H](O)[C@H](N)C[C@H](N)[C@H]3O[C@H]3O[C@H](CN)[C@@H](O)[C@H](O)[C@H]3N)O[C@@H]2Cn2cc(CCCc3cn(C[C@H]4O[C@@H](O[C@@H]5[C@@H](O)[C@H](N)C[C@H](N)[C@H]5O[C@H]5O[C@H](CN)[C@@H](O)[C@H](O)[C@H]5N)[C@H](O)[C@@H]4O[C@H]4O[C@@H](CN)[C@@H](O)[C@H](O)[C@H]4N)nn3)nn2)[C@H](N)[C@@H](O)[C@@H]1O — IC50 (HIV-1 TAR RNA; Tat peptide binding, FRET competition; pH 7.4, 25 °C): 0.06 ± 0.008 µM
N[C@@H](Cc1ccc(O)cc1)C(=O)N1Cc2ccccc2C[C@H]1C(=O)N[C@@H](Cc1ccccc1)C(=O)N[C@@H](Cc1ccc(NC(=O)CBr)cc1)C(=O)N[C@@H](CC(=O)O)C(=O)NCCOCCOCCNC(=O)CCCC[C@@H]1SC[C@@H]2NC(=O)N[C@@H]21 — IC50 (Delta-type opioid receptor (Oprd1, Mus musculus, UniProt P32300); ligand displacement, radioligand): 0.0104 µM
Nc1ncnc2c1ncn2[C@@H]1O[C@H](CSCCNC(=O)NCCc2ccccc2)[C@@H](O)[C@H]1O — IC50 (DNA (cytosine-5)-methyltransferase 3B, with DNMT3L (DNMT3B, Homo sapiens, UniProt Q9UBC3); inhibitor): > 50 µM
c1cc2c(cc1[C@H]1OC[C@@H]3[C@H]1CO[C@H]3c1ccc3c(c1)OCO3)OCO2 — IC50 (3-mercaptopyruvate sulfurtransferase (MPST, Homo sapiens, UniProt P25325); enzyme activity, inhibitor): 19.1 µM
CS(=O)(=O)SCCN — IC50 (arsenite methyltransferase (Chlamydomonas reinhardtii, UniProt K0BVM7)): 240 µM
COc1ccccc1[C@@H](NS(=O)(=O)c1cc2ccc(O)nc2cc1Cl)C(=O)N(CC(=O)NCCn1cc(COCCCCC(=O)N[C@H](C(=O)N2C[C@H](O)C[C@H]2C(=O)NCc2ccc(-c3scnc3C)cc2)C(C)(C)C)nn1)Cc1cccs1 — IC50 (UDP-N-acetylglucosamine--peptide N-acetylglucosaminyltransferase 110 kDa subunit (OGT, Homo sapiens, UniProt O15294); enzyme activity, inhibitor, fluorescence): 0.6 µM
O=C(NC12CC3CC(CC(C3)C1)C2)c1cc2cc(Cl)ccc2[nH]1 — IC50 (Cytochrome P450 2C9 (CYP2C9, Homo sapiens, UniProt P11712); inhibitor): 6.3 µM

Excerpt of the above:
CNC(=O)CNc1cnc2ccc(-c3ccc(OC)c(OC)c3)cc2n1 — IC50 (Phosphatidylinositol 4-kinase (Cryptosporidium parvum, UniProt Q5CVD3); enzyme activity; with: ATP 3 µM): 7.3 ± 0.841 µM
C[C@H](CS)C(=O)Nc1ccccc1-c1nnn(C)n1 — IC50 (blaNDM-1; enzyme activity, inhibitor, fluorescence; with preincubation): > 100 µM
CCOC(=O)c1ccc(-c2ccc(OC(=O)N(C)Cc3cccc(-c4ccncc4)c3)cc2)cc1 — IC50 (CES1; enzyme activity in cells, inhibitor): ~0.05 µM
